Experimental data gathered from unrelated publications.
Protocols differ between the studies behind these lines. Values joined by “and” are separate records of one study, mostly repeats; a detail may differ. Numbers after ± are the reported error.
CPL: CPL (Toxoplasma gondii, UniProt Q6DMN0)
Chain of UniProt P81183 (whole entry, unmodified, looked up): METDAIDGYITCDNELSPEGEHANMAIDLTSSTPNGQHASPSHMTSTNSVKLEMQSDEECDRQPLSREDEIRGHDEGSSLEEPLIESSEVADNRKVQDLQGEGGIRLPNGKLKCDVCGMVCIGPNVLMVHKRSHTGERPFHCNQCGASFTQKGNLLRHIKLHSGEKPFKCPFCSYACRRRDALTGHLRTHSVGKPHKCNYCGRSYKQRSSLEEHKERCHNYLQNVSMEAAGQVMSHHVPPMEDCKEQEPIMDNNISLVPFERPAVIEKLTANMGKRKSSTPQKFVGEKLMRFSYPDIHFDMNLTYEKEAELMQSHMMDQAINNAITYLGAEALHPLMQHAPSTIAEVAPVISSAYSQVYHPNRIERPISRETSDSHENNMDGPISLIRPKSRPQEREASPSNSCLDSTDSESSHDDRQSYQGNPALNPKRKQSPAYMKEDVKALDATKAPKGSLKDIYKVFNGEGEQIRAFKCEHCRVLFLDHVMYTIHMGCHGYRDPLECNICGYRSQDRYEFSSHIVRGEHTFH
Chain of UniProt P15823 (whole entry, looked up): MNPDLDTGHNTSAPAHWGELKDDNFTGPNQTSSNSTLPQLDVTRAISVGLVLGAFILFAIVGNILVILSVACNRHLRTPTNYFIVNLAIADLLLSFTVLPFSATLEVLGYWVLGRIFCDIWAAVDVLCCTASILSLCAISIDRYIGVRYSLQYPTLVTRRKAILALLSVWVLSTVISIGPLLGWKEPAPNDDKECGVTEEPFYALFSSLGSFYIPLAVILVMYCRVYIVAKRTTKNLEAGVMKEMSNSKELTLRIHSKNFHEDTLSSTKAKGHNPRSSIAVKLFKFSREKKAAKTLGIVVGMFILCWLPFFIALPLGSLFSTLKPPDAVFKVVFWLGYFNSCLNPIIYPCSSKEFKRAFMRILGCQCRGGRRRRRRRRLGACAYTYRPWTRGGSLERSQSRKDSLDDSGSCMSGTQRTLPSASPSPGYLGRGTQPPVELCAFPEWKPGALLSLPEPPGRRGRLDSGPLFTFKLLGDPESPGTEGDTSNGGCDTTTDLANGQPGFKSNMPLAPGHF
Chain of UniProt P33533 (whole entry, looked up): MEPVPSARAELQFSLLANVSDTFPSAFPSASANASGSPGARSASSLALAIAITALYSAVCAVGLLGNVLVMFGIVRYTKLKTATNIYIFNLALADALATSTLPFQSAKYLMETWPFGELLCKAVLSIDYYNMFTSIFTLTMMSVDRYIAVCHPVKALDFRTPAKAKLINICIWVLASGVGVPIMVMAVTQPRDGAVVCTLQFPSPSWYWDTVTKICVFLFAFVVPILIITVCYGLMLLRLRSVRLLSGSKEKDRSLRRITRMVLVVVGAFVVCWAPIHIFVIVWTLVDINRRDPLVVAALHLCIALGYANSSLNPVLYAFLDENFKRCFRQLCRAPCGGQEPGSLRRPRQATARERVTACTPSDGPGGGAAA
Chain of UniProt O88457 (whole entry, looked up): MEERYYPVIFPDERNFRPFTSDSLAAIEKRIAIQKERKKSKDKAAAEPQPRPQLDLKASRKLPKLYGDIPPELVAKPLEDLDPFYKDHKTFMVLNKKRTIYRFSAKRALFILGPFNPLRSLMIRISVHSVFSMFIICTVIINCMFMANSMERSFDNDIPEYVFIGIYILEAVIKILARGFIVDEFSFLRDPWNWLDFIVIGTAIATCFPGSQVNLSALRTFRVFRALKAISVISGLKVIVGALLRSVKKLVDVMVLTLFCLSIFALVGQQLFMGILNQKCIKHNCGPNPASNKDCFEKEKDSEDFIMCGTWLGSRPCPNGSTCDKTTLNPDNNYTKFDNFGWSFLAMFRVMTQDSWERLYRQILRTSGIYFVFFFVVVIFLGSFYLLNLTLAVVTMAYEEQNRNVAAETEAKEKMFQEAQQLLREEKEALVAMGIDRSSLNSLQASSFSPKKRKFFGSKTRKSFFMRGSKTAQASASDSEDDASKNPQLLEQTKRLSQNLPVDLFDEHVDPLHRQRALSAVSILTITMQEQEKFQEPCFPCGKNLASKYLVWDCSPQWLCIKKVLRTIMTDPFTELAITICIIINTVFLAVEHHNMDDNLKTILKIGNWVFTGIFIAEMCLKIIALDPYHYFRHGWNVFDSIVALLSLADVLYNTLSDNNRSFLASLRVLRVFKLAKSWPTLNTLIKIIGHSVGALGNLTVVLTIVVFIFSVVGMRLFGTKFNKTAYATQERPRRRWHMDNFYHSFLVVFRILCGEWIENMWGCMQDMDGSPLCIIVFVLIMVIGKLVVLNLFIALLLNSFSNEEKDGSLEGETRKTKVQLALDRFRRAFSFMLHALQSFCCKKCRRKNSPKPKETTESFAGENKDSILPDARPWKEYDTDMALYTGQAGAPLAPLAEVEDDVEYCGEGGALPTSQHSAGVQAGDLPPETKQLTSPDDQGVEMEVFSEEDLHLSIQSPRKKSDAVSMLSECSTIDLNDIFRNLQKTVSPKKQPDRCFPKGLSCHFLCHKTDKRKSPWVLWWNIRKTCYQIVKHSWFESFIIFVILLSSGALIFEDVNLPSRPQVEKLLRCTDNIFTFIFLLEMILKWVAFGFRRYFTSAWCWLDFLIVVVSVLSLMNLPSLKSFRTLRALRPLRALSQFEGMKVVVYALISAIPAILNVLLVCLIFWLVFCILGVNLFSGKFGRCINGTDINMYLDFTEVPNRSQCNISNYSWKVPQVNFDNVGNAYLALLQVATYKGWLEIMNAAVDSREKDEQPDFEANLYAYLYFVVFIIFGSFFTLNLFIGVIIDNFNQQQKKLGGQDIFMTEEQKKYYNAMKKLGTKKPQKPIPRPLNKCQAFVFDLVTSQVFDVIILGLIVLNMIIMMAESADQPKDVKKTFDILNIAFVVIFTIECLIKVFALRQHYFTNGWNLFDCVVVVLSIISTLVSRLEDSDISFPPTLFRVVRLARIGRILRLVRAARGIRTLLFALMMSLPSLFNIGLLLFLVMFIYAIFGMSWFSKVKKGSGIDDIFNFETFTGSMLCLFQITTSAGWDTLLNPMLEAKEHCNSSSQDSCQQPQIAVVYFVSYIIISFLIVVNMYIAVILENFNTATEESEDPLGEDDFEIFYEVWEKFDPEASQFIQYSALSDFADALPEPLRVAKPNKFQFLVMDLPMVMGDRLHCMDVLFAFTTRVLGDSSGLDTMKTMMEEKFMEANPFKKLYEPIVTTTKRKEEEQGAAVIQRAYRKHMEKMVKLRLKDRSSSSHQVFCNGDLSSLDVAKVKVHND
Chain of UniProt O00141 (whole entry, looked up): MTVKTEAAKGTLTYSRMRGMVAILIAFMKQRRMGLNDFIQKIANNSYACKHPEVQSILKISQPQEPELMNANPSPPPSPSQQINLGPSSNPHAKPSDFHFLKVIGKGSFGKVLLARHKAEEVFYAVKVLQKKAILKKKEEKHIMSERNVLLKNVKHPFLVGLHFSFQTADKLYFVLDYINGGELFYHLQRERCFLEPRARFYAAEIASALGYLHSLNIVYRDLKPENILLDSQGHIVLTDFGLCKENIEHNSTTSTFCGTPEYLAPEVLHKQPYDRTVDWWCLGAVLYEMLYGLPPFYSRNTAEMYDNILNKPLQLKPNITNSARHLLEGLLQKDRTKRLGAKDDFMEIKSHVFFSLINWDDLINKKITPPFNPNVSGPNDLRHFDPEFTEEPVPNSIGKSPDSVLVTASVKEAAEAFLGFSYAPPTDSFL
Chain of UniProt Q9H008 (whole entry, looked up): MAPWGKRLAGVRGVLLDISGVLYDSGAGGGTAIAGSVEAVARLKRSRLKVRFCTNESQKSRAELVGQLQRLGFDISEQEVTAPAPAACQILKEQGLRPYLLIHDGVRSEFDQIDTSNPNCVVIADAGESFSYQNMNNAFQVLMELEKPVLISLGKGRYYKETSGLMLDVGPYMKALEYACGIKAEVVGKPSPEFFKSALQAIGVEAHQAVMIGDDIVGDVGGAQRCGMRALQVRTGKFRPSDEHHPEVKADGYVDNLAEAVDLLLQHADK
Chain of UniProt P35462 (whole entry, looked up): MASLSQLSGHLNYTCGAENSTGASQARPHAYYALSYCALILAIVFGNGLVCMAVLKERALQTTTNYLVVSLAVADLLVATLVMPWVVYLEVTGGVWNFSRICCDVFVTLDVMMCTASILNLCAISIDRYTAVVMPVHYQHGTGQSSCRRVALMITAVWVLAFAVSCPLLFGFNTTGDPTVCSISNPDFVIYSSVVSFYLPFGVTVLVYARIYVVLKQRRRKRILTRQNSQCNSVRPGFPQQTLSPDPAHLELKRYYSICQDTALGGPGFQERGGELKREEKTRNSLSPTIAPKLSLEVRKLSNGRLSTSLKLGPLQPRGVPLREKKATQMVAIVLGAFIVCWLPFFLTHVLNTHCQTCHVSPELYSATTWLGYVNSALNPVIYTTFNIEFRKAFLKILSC
Chain of UniProt P08482 (whole entry, looked up): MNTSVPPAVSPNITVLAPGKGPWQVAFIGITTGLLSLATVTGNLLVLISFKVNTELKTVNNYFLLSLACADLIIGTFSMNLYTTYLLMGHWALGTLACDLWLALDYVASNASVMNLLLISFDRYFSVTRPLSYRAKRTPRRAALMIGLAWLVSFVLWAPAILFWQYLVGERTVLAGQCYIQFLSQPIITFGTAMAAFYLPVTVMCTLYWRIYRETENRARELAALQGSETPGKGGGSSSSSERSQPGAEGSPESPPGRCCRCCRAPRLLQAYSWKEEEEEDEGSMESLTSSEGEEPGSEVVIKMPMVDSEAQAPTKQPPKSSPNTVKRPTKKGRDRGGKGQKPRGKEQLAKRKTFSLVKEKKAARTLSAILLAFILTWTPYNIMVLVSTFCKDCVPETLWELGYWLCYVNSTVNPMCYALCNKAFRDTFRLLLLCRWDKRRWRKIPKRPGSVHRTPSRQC
Chain of UniProt P17931 (whole entry, unmodified, looked up): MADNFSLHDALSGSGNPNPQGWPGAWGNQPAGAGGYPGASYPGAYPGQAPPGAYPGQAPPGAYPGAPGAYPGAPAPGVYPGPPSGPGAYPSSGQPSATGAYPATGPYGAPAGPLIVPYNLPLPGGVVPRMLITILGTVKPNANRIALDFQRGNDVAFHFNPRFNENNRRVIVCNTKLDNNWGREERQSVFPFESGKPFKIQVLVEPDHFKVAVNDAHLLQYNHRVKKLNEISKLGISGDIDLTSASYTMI

| Compound | target | assay | system | conditions | scale | endpoint | value |
| --- | --- | --- | --- | --- | --- | --- | --- |
| NC(=O)Cc1cc(=O)oc2cc(NC(=O)[C@@H](N)CCc3ccc(O)cc3)ccc12 | Aminopeptidase N (Neisseria meningitidis, UniProt Q9JYV4) | enzyme activity, substrate |  | 3 µM, pH 7.5, 37 °C | reference: L-hArg-ACC | relative hydrolysis rate | 38.5 to 74% |
| CC(C)CCN(Cc1ccccc1C#N)c1nc(C#N)nc(N2CCOCC2)n1 | CPL | enzyme activity, inhibitor |  |  | reference: human over Toxoplasma IC50 | selectivity ratio | 0.5 |
| CC(C)(CO)NCc1ccc(-c2cc(Cl)cc(Cl)c2)o1 | DRD3 (Homo sapiens, UniProt P35462) | radioligand competition binding |  |  |  | ligand efficiency | 0.49 |
| NS(=O)(=O)c1ccc(NC(=O)c2ccccc2SSc2ccccc2C(=O)Nc2ccc(S(N)(=O)=O)cc2)cc1 | Gag-Pol polyprotein, integrase (gag-pol, Human immunodeficiency virus type 1 group M subtype B, UniProt P04585, C1427S) | 3'-processing, inhibitor |  | C280S full-length IN | reference: Mg2+ over Mn2+ dependent activity | potency ratio | ~10 fold |
| CC(=O)/C(C#N)=C/c1cccc(C(N)=O)c1 | Genome polyprotein, 3C protease (Human enterovirus D68, UniProt Q68T42, C1641Y/I1565V/I1594T/R1603K/Y1579H) | isothermal titration calorimetry | enterovirus D68 | DTT 0.1 mM |  | -TΔS | 0.201 kcal/mol |
| Nc1nc2c([C@@H]3O[C@@H]4COP(=O)(O)O[C@H]5[C@@H](O)[C@H](n6cnc7c(=O)[nH]c(N)nc76)O[C@@H]5COP(=O)(O)O[C@H]4[C@H]3O)snc2c(=O)[nH]1 | rocR (Pseudomonas aeruginosa, UniProt Q9HX69) | substrate, HPLC |  | 10 µM, with: 100 nM enzyme |  | association rate constant k1 | 1.85e+06 ± 70000 M⁻¹ s⁻¹ |
| C#C[C@@]12CC[C@H]([C@H](C)CCCC(C)C)[C@@]1(C)CC[C@H]1C2=CCC2C(C)(C)[C@@H](O)CC[C@@]21C (some centres unmarked) | CYP51 (Trypanosoma cruzi, UniProt Q7Z1V1) | spectral binding |  | type I spin shift |  | maximal high-spin heme content | 35 to 40% |
| N[C@H](Cc1ccccc1)P(=O)(O)O | PAL1 (Petroselinum crispum, UniProt P24481, Y110F) | isothermal titration calorimetry |  | concentration not given | reference: wild type minus Y110F | ΔΔG binding | -0.1 kcal/mol |
| CC(=O)NCC(=O)NCC(=O)N[C@@H](CCCCNP(=O)(O)O)C(=O)NCC(=O)NCC(N)=O | Phospholysine phosphohistidine inorganic pyrophosphate phosphatase (LHPP, Homo sapiens, UniProt Q9H008) | substrate |  | 100 µM, pH 7.8 |  | initial velocity | 1.97e-08 M/s |
| CC(=O)N[C@H]1C(O)O[C@H](CO)[C@@H](O[C@@H]2O[C@H](CO)[C@H](O)[C@H](O)[C@H]2O)[C@@H]1O (some centres unmarked) | Galectin-3 (LGALS3, Homo sapiens, UniProt P17931) | binding, isothermal titration calorimetry |  | full-length protein |  | –TΔS | 6.6 kcal/mol |
| CCN(Cc1ccccc1)C(=O)CCc1nc(CN2CCN(C(=O)Cc3ccc(OC)c(OC)c3)CC2)no1 | Sodium channel protein type 11 subunit alpha (Scn11a, Rattus norvegicus, UniProt O88457) | sodium current, whole-cell patch clamp | rat DRG neurons | 10 µM | reference: control, towards hyperpolarisation | inactivation curve shift | 12.1 mV |
| CC(C)C[C@H](NC(=O)[C@H](CCC(=O)O)NC(=O)[C@H](C)NC(=O)[C@H](CCC(=O)O)NC(=O)[C@H](CCC(=O)O)NC(=O)[C@H](Cc1c[nH]cn1)NC(=O)[C@H](CCCNC(=N)N)NC(=O)[C@H](CCC(=O)O)NC(=O)[C@H](CC(N)=O)NC(=O)[C@H](CCCCN)NC(=O)[C@H](CC(C)C)NC(=O)[C@H](CCCNC(=N)N)NC(=O)[C@H](CCC(N)=O)NC(=O)[C@H](CC(C)C)NC(=O)[C@H](CCC(N)=O)NC(=O)[C@H](C)NC(=O)[C@H](CC(N)=O)NC(=O)[C@H](C)NC(=O)[C@@H](NC(=O)[C@H](CC(C)C)NC(=O)[C@H](CCCCN)NC(=O)[C@H](CCC(=O)O)NC(=O)[C@@H](NC(=O)[C@H](CO)NC(=O)CN)C(C)C)[C@@H](C)O)C(=O)N[C@@H](CCC(=O)O)C(=O)N[C@@H](CCCNC(=N)N)C(=O)N[C@@H](CC(C)C)C(=O)N[C@@H](CCCCN)C(=O)N[C@@H](CO)C(=O)N[C@@H](CCC(=O)O)C(=O)N[C@@H](Cc1ccc(O)cc1)C(=O)O | Plasminogen (PLG, Homo sapiens, UniProt P00747, C188G/E240D/L256Y) | binding, SPR |  | pH 7.4 |  | kon | 50400 M⁻¹ s⁻¹ |
| C=C(C)C(=O)Oc1ccc(C(C)(C)c2ccc(OC(=O)C(=C)C)cc2)cc1 | Androgen receptor (AR, Homo sapiens, UniProt P10275) | reporter gene, antagonist | CHO | with: 0.1 nM R1881 |  | LOEC | 2.5 µM |
| COC(=O)C1C(OC(c2ccc(Cl)cc2)c2ccc(Cl)cc2)CC2CCC1N2C (single isomer, unassigned) | Adra1b (Rattus norvegicus, UniProt P15823) | binding, radioligand displacement | rat liver | inactive if below 75% at 10000 nM, with: [3H]prazosin |  | Ki | inactive |
| Cc1cc(O)cc(C)c1CC(N)C(=O)NC1CCNc2c(C(=O)NCc3ccccc3)cc(Cc3ccccc3)cc21 (centres unmarked) | Oprd1 (Rattus norvegicus, UniProt P33533) | GTPγS binding, antagonist |  | with: SNC80 |  | Ke | 16.7 nM |
| Cn1ccc(-c2ccc(Cn3cc(C(=O)N[C@H]4CCCC[C@@H]4O)c4c(F)cc(F)cc43)cn2)n1 | Chrm1 (Rattus norvegicus, UniProt P08482) | calcium mobilization, agonist | CHO cells |  | reference: ACh maximum | maximum response | 65 ± 9% |
| CC[C@H](C)[C@H](NC(=O)[C@H](CC(N)=O)NC(=O)[C@H](CC(N)=O)NC(=O)[C@@H](N)CCCNC(N)=O)C(=O)N1C[C@@H](n2cc([C]34[CH]5[CH]6[CH]7[CH]3[Fe]6754389%10[CH]4[CH]3[CH]8[CH]9[CH]4%10)nn2)C[C@H]1C(=O)N[C@@H](Cc1c[nH]c2ccccc12)C(=O)N[C@@H](CO)C(N)=O (some centres unmarked) | env (Human immunodeficiency virus type 1 group M subtype B, UniProt P35961) | ITC |  | pH 7.4, 25 °C |  | binding free energy | -10.5 ± 0.8 kcal/mol |
| CC(C)(C)CCN(Cc1ccc(F)cc1)c1nc(C#N)nc(N2CCOCC2)n1 | CPL | enzyme activity, inhibitor |  |  | reference: human over Toxoplasma IC50 | selectivity ratio | 2.4 and 2 |
| O=C(c1ccc2c(c1)c1ccccc1n2CCN1CCOCC1)c1cccc2ccccc12 | CNR1 (Homo sapiens, UniProt P21554) | GTPγS binding, agonist |  | cell membranes |  | Emax | 130% |
| CC(=O)NC(Cc1ccc(Br)c(Cl)c1)C(=O)N[C@@H](C)C(=O)N1CCC[C@H]1C(=O)N1CCC[C@H]1C(=O)N[C@@H](CCC(=O)O)C(=O)N[C@@H](Cc1c[nH]cn1)C(=O)N[C@@H](CO)C(=O)N[C@H](C(=O)N[C@@H](C)C(N)=O)[C@@H](C)OP(=O)(O)O (some centres unmarked) | SGK1 (Homo sapiens, UniProt O00141) | enzyme activity, inhibitor |  | 10 µM |  | inhibition | 0.19% |
| Cn1cc(-c2cccc(CN3CCC4(CC3)COc3c4ccc4c3CN([C@H]3CCC(=O)NC3=O)C4=O)c2)cn1 | Ikzf2/Crbn (Mus musculus, UniProt P81183+Q8C7D2, I391V) |  | mouse Crbn I391V, spleen | oral, 100 mg/kg single dose, 6 h |  | degradation | 89% |
| C=C(F)C(=O)N1CCN(c2nc(OC[C@@H]3CCCN3CCCOCCC(=O)N[C@H](C(=O)N3C[C@@H](O)C[C@H]3C(=O)NCc3ccc(-c4scnc4C)cc3)C(C)(C)C)nc3c2CCN(c2cccc4cccc(Cl)c24)C3)C[C@@H]1CC#N | GTPase KRas (KRAS, Homo sapiens, UniProt P01116, G12C) | immunoblot band shift | SW1573 | 2.5 µM |  | time to target engagement | ≤ 1 h |
| CC[C@H](C)[C@H](NC(=O)[C@H](CC(N)=O)NC(=O)[C@H](CC(N)=O)NC(=O)[C@@H](N)CCCNC(N)=O)C(=O)N1C[C@@H](n2cc(-c3ccc(N)cc3)nn2)C[C@H]1C(=O)N[C@@H](Cc1c[nH]c2ccccc12)C(=O)N[C@@H](CO)C(N)=O | Envelope glycoprotein gp160, gp120 (env, Human immunodeficiency virus type 1 group M subtype B, UniProt P35961) |  | HIV-1 | concentration not given |  | activity class | active |
